# Values quoted from earlier work as cited in several papers.
# Organism: Plasmodium falciparum
SMILES,read-out,strain,time,notes,IC50
O=C1C(O)=C([C@H]2CC[C@H](c3ccc(Cl)cc3)CC2)C(=O)c2ccccc21,,3D7,72 h,whole cell,0.001 µM
CC1=C2Cc3cc(ccc3O)C(=O)O[C@H](C(C)(C)Br)CC[C@](C)(O)[C@H](Br)CC[C@]2(C)[C@@H](Br)CC1,,chloroquine-resistant,,,< 1 µM
CCCCCCCCCCCCCCCC[N+](C)(C)C,growth,,,,10 µM
O=CN(O)CCCP(=O)(O)O,parasite growth,,,blood stage,0.181 µM
C[C@H]1CCC[C@H](C[C@H]2Cc3cc(O)cc(O)c3C(=O)O2)O1,parasite growth,,,blood and liver stages,0.04 to 0.09 µM
O=C(Nc1ccccc1O)c1ccc(S(=O)(=O)c2ccc(Cl)cc2)cc1,,3D7,72 h,whole cell,1.34 µM
O=P(O)(O)C(O)(Cn1ccnc1)P(=O)(O)O,parasite growth,,,,> 70 µM
S=C(NCCCNCCCCCCNCCCNC(=S)NC(c1ccccc1)c1ccccc1)NC(c1ccccc1)c1ccccc1,parasite growth,3D7,,intraerythrocytic stage,0.211 µM
CCN(CC)CCCC(C)Nc1ccnc2cc(Cl)ccc12 (stereo not drawn),parasite growth,3D7,,,0.08 µM
O=CN(O)CCCP(=O)(O)O,,fresh clinical Cameroonian isolates,,,0.301 µM
CCCCCCCCCC[N+](C)(C)C,growth,,,,0.7 µM
c1ccc(CCNc2ncnc3c2[nH]c2ccccc23)cc1,,3D7,72 h,whole cell,0.6 µM

# Repeated from above:
SMILES,read-out,strain,time,notes,IC50
O=CN(O)CCCP(=O)(O)O,,fresh clinical Cameroonian isolates,,,0.301 µM
C[C@H]1CCC[C@H](C[C@H]2Cc3cc(O)cc(O)c3C(=O)O2)O1,parasite growth,,,blood and liver stages,0.04 to 0.09 µM
